Experimental data of several laboratories.
Values joined by “and” are separate records of one study, mostly repeats; a detail may differ.
HLA class I histocompatibility antigen, A alpha chain: HLA class I histocompatibility antigen, A alpha chain (Homo sapiens, UniProt P04439)
NEU1: Sialidase-1 (NEU1, Homo sapiens, UniProt Q99519)
F2: Prothrombin (F2, Homo sapiens, UniProt P00734)
Proteasome component C5/PSMB5 chymotrypsin-like site: Proteasome component C5/PSMB5, chymotrypsin-like site (Homo sapiens, UniProt P20618+P28074)
Chain of UniProt P28074 (whole entry, looked up): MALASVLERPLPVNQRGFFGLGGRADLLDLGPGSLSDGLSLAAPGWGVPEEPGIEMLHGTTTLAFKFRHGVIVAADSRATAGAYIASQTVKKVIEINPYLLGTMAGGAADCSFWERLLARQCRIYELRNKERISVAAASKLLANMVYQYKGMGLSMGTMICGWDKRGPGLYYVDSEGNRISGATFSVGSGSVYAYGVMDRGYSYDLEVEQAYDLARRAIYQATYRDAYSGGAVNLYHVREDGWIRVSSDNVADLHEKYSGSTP
Chain of UniProt P20618 (whole entry, looked up): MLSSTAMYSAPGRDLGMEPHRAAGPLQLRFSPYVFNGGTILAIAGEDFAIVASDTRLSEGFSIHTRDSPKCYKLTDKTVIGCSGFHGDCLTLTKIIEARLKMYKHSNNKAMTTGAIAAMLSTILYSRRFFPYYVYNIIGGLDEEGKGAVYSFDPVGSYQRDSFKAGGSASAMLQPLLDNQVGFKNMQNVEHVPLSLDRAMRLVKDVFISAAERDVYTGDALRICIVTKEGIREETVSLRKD
Chain of UniProt O42275 (whole entry, looked up): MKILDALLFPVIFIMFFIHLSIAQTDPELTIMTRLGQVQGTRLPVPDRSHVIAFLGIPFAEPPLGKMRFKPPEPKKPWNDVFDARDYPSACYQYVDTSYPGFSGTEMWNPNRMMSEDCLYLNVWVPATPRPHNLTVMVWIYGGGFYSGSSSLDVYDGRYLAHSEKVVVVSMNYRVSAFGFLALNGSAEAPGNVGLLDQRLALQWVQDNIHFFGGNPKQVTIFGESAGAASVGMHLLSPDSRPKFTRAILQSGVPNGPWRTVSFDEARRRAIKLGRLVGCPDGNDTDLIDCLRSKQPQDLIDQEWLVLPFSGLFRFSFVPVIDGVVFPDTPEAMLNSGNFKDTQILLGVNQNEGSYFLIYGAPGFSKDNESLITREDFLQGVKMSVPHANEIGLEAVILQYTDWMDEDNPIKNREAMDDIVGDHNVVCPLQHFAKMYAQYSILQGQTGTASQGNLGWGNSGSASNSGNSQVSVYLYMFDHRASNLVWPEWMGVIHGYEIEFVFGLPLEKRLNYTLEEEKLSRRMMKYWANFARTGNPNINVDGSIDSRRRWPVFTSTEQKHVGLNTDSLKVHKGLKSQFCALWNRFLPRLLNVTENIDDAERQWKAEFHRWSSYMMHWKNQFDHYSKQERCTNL
Chain of UniProt P52895 (whole entry, looked up): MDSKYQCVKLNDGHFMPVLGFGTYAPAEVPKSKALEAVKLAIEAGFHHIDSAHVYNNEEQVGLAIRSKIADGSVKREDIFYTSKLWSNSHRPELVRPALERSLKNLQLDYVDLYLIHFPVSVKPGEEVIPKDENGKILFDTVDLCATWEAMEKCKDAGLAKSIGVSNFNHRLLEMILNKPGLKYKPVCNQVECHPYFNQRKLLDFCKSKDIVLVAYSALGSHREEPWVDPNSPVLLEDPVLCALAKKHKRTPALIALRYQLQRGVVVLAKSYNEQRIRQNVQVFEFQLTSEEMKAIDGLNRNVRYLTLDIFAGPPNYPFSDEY
Chain of UniProt P42574 (whole entry, looked up): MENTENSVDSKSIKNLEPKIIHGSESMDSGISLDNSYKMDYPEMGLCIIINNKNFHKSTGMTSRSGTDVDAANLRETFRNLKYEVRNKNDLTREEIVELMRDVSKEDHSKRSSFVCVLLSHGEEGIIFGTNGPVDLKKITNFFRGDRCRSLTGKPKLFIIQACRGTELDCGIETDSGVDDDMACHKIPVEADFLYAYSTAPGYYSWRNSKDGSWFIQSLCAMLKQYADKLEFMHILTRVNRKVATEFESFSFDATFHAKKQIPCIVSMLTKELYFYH
Chain of UniProt P27338 (whole entry, looked up): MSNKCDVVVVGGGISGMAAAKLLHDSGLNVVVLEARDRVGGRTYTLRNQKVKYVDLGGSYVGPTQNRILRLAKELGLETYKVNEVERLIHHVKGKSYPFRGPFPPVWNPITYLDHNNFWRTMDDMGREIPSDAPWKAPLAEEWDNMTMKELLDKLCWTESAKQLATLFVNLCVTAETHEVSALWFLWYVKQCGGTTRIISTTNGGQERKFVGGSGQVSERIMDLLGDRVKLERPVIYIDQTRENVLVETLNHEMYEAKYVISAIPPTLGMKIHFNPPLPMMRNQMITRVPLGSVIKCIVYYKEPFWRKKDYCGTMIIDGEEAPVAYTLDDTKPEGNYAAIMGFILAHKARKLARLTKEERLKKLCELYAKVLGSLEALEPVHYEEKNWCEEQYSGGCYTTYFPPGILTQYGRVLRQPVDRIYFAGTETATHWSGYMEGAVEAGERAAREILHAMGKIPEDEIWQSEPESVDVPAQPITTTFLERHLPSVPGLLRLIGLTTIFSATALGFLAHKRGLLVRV
Chain of UniProt Q9P0L9 (whole entry, unmodified, looked up): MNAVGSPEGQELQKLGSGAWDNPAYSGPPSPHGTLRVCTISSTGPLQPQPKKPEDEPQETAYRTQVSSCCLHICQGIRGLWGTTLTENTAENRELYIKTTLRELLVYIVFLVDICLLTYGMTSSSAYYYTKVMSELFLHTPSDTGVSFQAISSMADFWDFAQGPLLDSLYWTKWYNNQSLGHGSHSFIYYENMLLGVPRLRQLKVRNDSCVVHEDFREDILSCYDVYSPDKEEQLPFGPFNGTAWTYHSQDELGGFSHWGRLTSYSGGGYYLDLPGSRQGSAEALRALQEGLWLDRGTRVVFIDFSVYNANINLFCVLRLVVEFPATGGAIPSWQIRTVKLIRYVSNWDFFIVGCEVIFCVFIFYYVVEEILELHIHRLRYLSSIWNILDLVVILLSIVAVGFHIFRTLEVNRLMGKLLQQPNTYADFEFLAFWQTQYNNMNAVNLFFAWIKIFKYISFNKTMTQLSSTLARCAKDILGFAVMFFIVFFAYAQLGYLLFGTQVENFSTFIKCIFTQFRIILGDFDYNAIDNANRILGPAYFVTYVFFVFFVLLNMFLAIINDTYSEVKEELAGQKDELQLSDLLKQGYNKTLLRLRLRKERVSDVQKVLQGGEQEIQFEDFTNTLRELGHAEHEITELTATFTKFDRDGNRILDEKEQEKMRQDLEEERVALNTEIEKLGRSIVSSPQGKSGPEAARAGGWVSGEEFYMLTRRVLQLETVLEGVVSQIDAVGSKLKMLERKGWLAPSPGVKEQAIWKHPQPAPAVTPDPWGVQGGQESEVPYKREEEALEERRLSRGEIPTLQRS
Chain of UniProt Q93009 (whole entry, looked up): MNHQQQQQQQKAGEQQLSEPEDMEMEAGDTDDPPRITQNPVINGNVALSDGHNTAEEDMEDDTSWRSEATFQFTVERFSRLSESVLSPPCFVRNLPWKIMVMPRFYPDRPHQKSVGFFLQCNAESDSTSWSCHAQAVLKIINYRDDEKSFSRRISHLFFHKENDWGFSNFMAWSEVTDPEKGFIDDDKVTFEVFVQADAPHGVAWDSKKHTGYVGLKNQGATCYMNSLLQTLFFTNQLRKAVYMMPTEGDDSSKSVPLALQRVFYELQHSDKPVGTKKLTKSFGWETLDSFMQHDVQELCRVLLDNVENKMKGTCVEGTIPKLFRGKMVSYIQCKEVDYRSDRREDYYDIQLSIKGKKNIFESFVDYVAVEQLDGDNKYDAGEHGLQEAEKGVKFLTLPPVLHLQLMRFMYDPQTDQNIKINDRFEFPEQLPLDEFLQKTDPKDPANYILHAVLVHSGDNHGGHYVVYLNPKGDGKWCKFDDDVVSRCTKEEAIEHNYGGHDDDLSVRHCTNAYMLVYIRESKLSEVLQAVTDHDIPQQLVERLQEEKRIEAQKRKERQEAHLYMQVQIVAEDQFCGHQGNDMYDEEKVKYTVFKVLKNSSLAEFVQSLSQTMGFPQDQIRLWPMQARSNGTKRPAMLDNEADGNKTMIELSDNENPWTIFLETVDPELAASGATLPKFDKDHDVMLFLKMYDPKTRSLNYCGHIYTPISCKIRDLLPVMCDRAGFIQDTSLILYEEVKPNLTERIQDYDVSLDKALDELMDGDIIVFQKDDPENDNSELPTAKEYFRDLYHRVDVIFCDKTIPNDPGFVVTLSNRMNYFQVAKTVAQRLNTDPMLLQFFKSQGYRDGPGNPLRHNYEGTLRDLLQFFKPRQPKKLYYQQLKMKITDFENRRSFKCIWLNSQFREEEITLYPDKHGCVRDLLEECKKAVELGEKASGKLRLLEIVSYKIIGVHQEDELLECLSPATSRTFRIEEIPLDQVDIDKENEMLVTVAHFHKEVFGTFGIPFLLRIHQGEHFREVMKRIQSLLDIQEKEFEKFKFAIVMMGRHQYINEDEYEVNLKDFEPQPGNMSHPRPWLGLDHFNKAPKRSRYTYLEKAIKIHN
Chain of UniProt P30575 (whole entry, looked up): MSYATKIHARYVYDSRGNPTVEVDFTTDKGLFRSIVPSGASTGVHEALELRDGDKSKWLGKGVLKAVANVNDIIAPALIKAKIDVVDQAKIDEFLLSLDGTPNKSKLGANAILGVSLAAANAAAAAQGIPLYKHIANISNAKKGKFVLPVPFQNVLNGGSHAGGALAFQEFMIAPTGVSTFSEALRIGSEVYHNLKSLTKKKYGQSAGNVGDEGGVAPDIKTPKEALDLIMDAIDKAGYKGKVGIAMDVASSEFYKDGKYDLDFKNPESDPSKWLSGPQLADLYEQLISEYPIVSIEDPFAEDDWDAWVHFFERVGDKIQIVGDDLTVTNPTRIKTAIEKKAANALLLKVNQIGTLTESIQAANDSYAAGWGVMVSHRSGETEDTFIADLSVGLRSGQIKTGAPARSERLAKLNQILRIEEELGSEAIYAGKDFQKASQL

SMILES	target	effect on	mode	method	pH	notes	IC50
CSCC[C@H](NC(=O)[C@H](Cc1c[nH]cn1)NC(=O)[C@H](Cc1ccccc1)NC(=O)[C@@H]1CCCN1C(=O)[C@H](CCCCN)NC(=O)[C@H](CCC(=O)O)NC(=O)[C@H](Cc1c[nH]c2ccccc12)NC(=O)[C@H](CC(C)C)NC(=O)[C@@H](N)CCCNC(=N)N)C(=O)O	HLA class I histocompatibility antigen, A alpha chain	cell-free assay					830 nM
O=C(O)C(F)(F)C(F)(F)C(F)(F)C(F)(F)C(F)(F)C(F)(F)C(F)(F)C(F)(F)C(F)(F)C(F)(F)C(F)(F)F	Aldo-keto reductase family 1 member C2 (AKR1C2, Homo sapiens, UniProt P52895)	enzyme activity	inhibitor	fluorescence			15100 nM
O=C(O)CP(=O)(O)CO	ENO1 (Candida albicans, UniProt P30575)	enzyme activity	inhibitor	absorbance			> 50000 nM
CC(C)(C)NC(=O)N[C@H]1[C@H]([C@H](O)[C@H](O)CO)OC(C(=O)O)=C[C@@H]1O	NEU1	enzyme activity	inhibitor				> 500000 nM
CSCC[C@H](NC(=O)[C@H](CCC(N)=O)NC(=O)[C@@H](N)CCCCN)C(=O)NCC(=O)N[C@@H](Cc1c[nH]cn1)C(=O)N[C@@H](CC(C)C)C(=O)N[C@@H](CC(C)C)C(=O)N[C@H](C(=O)N[C@@H](Cc1ccccc1)C(=O)O)[C@@H](C)O	HLA class I histocompatibility antigen, A alpha chain	cell-free assay					1050 nM
CCC(C(=O)Nc1cc(NC2CCNC2)ccc1C)n1cc(Br)cc2nc(SCc3ccc(F)cc3)nc1-2 (centres unmarked)	F2	enzyme activity	inhibitor				> 100000 nM
CN1CC[C@@H]2CN(c3nccc(-c4cnn5ncccc45)n3)C[C@@H]21	Dual specificity tyrosine-phosphorylation-regulated kinase 1A (DYRK1A, Homo sapiens, UniProt Q13627)	cell-free assay		TR-FRET			2040 nM
CC(C)C[C@H](NC(=O)[C@@H](N)CCCCN)C(=O)N[C@@H](Cc1ccccc1)C(=O)N1CCC[C@H]1C(=O)N[C@@H](Cc1c[nH]cn1)C(=O)N[C@@H](Cc1ccccc1)C(=O)N[C@@H](Cc1ccc(O)cc1)C(=O)N[C@@H](CCCNC(=N)N)C(=O)N[C@@H](Cc1ccccc1)C(=O)O	HLA class I histocompatibility antigen, A alpha chain	cell-free assay					88 nM
CCC(C(=O)Nc1cc(NC2CCNCC2)ccc1C)n1cc(Cl)cc2nc(SCc3ccc(F)cc3)nc1-2 (centres unmarked)	Ubiquitin carboxyl-terminal hydrolase 28 (USP28, Homo sapiens, UniProt Q96RU2)	enzyme activity	inhibitor				> 100000 nM
CSCC[C@H](NC(=O)[C@@H]1CCCN1C(=O)[C@@H](NC(=O)[C@@H]1CCCN1C(=O)[C@@H](N)C(C)C)C(C)C)C(=O)O	Dipeptidyl peptidase 4 (DPP4, Homo sapiens, UniProt P27487)	enzyme activity	inhibitor	absorbance	pH 8		99900 nM
O=C(/C=C\c1ccccc1)O[C@H]1[C@@H]2C=CO[C@@H](O[C@@H]3O[C@H](CO)[C@@H](O)[C@H](O)[C@H]3O)[C@@H]2[C@@]2(CO)O[C@@H]12	Amine oxidase [flavin-containing] B (MAOB, Homo sapiens, UniProt P27338)	enzyme activity	inhibitor	fluorescence			46800 nM
CCCCCc1cn([C@H]2[C@H]([C@H](O)[C@H](O)CO)OC(C(=O)O)=C[C@@H]2O)nn1	NEU1	enzyme activity	inhibitor				900 nM
COc1ccc(C[C@H](NC(=O)[C@H](C)NC(=O)OC(C)(C)C)C(=O)N[C@@H](CC(C)C)C(=O)C(=O)Nc2ccccc2)cc1	Proteasome component C5/PSMB5 chymotrypsin-like site	enzyme activity in cells	inhibitor				1820 nM
CCCCOc1cc(C(=O)NCCN(CC)CC)c2ccccc2n1	PKD2L1 (Homo sapiens, UniProt Q9P0L9, F549H)	ion current	inhibitor	patch clamp			17200 nM
COc1ccc(C[C@H](NC(=O)[C@H](C)NC(=O)CN2CCOCC2)C(=O)N[C@@H](CC(C)C)C(=O)C(=O)Nc2ccccc2)cc1	Proteasome component C5/PSMB5 chymotrypsin-like site	enzyme activity in cells	inhibitor				724 nM
O=c1c(O)c(-c2ccc(O[C@@H]3O[C@H](CO)[C@@H](O)[C@H](O)[C@H]3O)c(O)c2)oc2cc(O)cc(O)c12	Acetylcholinesterase (ache, Electrophorus electricus, UniProt O42275)	enzyme activity	inhibitor	Ellman			4.44 nM and 7.88 nM
CC[C@H](C)[C@H](NC(=O)[C@@H]1CCCN1C(=O)CNC(=O)[C@@H]1CCCN1C(=O)[C@H](Cc1ccc(O)cc1)NC(=O)[C@H](CC(C)C)NC(=O)[C@@H](N)CCCCN)C(=O)N[C@@H](CC(C)C)C(=O)N[C@@H](CCSC)C(=O)O	HLA class I histocompatibility antigen, A alpha chain	cell-free assay					375 nM
CC(C)CNC(=O)N[C@H]1[C@H]([C@H](O)[C@H](O)CO)OC(C(=O)O)=C[C@@H]1O	NEU1	enzyme activity	inhibitor				> 500000 nM
CCC(C(=O)Nc1cc(NC2CCOCC2)ccc1C)n1cc(Br)cc2nc(SCc3ccc(F)cc3)nc1-2 (centres unmarked)	Ubiquitin carboxyl-terminal hydrolase 7 (USP7, Homo sapiens, UniProt Q93009)	enzyme activity	inhibitor				> 100000 nM
CC(C)CCC(=O)N[C@H]1[C@H]([C@H](O)[C@H](O)CO)OC(C(=O)O)=C[C@@H]1O	NEU1	enzyme activity	inhibitor				700 nM
CCC(C(=O)Nc1cc(NC2CNC2)ccc1C)n1cccc2nc(SCc3ccc(F)cc3)nc1-2 (centres unmarked)	Caspase-3 (CASP3, Homo sapiens, UniProt P42574)	enzyme activity	inhibitor				> 100000 nM
CC[C@H](C)[C@H](NC(=O)[C@@H](N)CCCCN)C(=O)N[C@@H](Cc1ccccc1)C(=O)N1CCC[C@H]1C(=O)N[C@H](C(=O)N1CCC[C@H]1C(=O)N[C@@H](CC(C)C)C(=O)N[C@@H](CCCCN)C(=O)N[C@@H](Cc1ccccc1)C(=O)O)C(C)C	HLA class I histocompatibility antigen, A alpha chain	cell-free assay					220 nM
CC(C)C[C@H](NC(=O)OCc1ccccc1)C(=O)N[C@@H](CC(C)C)C(=O)N[C@@H](CC(C)C)C(=O)C(=O)Nc1cccc2ncccc12	Proteasome component C5/PSMB5 chymotrypsin-like site	enzyme activity in cells	inhibitor				102 nM
CC(C)[C@H](NC(=O)[C@@H](N)CCCCN)C(=O)N[C@@H](CC(=O)O)C(=O)N1CCC[C@H]1C(=O)N[C@@H](CCCCN)C(=O)N[C@@H](Cc1ccccc1)C(=O)N[C@H](C(=O)N[C@@H](CO)C(=O)N[C@@H](Cc1ccccc1)C(=O)O)[C@@H](C)O	HLA class I histocompatibility antigen, A alpha chain	cell-free assay					19700 nM
C[N+]12CCC(CC1)[C@@H](Cc1nc(-c3cccs3)no1)C2	Neuronal acetylcholine receptor subunit alpha-9 (CHRNA9, Homo sapiens, UniProt Q9UGM1)	ion current	antagonist	two-electrode voltage clamp		oocytes	140 nM
CC(C)C[C@H](NC(=O)[C@H](CCC(=O)O)NC(=O)[C@H](CC(C)C)NC(=O)[C@@H]1CCCN1C(=O)[C@H](CCCCN)NC(=O)[C@H](CO)NC(=O)[C@H](Cc1ccc(O)cc1)NC(=O)[C@@H](NC(=O)[C@@H](N)Cc1ccc(O)cc1)[C@@H](C)O)C(=O)O	HLA class I histocompatibility antigen, A alpha chain	cell-free assay					666 nM
CCC(C(=O)Nc1cc(NC2COC2)ccc1C)n1cc(Br)cc2nc(SCc3ccc(F)cc3)nc1-2 (centres unmarked)	F2	enzyme activity	inhibitor				> 100000 nM
COc1ccc(C[C@H](NC(=O)[C@H](C)NC(=O)c2ccc(-c3ccc(C(C)=O)cc3)o2)C(=O)N[C@@H](CC(C)C)C(=O)C(=O)Nc2ccccc2)cc1	Proteasome component C5/PSMB5 chymotrypsin-like site	enzyme activity in cells	inhibitor				52.5 nM
CC[C@H](C)[C@H](NC(=O)[C@@H]1CCCN1C(=O)[C@H](CC(=O)O)NC(=O)[C@H](CCSC)NC(=O)[C@@H](N)Cc1ccc(O)cc1)C(=O)N1CCC[C@H]1C(=O)N[C@@H](Cc1c[nH]cn1)C(=O)N[C@@H](CCC(N)=O)C(=O)N[C@@H](Cc1ccc(O)cc1)C(=O)O	HLA class I histocompatibility antigen, A alpha chain	cell-free assay					364 nM

For quick reference, copied from above:
SMILES	target	effect on	mode	method	pH	notes	IC50
CC(C)C[C@H](NC(=O)[C@H](CCC(=O)O)NC(=O)[C@H](CC(C)C)NC(=O)[C@@H]1CCCN1C(=O)[C@H](CCCCN)NC(=O)[C@H](CO)NC(=O)[C@H](Cc1ccc(O)cc1)NC(=O)[C@@H](NC(=O)[C@@H](N)Cc1ccc(O)cc1)[C@@H](C)O)C(=O)O	HLA class I histocompatibility antigen, A alpha chain	cell-free assay					666 nM
CC[C@H](C)[C@H](NC(=O)[C@@H](N)CCCCN)C(=O)N[C@@H](Cc1ccccc1)C(=O)N1CCC[C@H]1C(=O)N[C@H](C(=O)N1CCC[C@H]1C(=O)N[C@@H](CC(C)C)C(=O)N[C@@H](CCCCN)C(=O)N[C@@H](Cc1ccccc1)C(=O)O)C(C)C	HLA class I histocompatibility antigen, A alpha chain	cell-free assay					220 nM
